Measurements collected from several papers.
Protocols differ between the studies behind these lines.

SMILES = C[C@]12C=CC(=O)C=C1CC[C@@H]1[C@@H]2C(=O)C[C@@]2(C)[C@H]1CC[C@]2(O)C(=O)CO; test system = healthy human subjects; setting = oral, dose not given; quantity = subjects with TEAEs; result = 9.5%
SMILES = CC(=O)N(C)[C@H]1CCN(C(=O)c2cnc3c(c2)C[C@](C)(c2ccc(F)cc2)N3)C1; test system = healthy male human; setting = oral, dose not given, all doses pooled; quantity = subjects with serious AEs; result = 0%
SMILES = C[C@@H](c1nc(-c2ccc(C#N)cc2)cs1)[C@](O)(Cn1cncn1)c1cc(F)ccc1F; test = item: abdominal pain; test system = humans; setting = oral, dose not given, together with: ketoconazole; quantity = subjects with TEAEs; result = 0%
SMILES = CN1C(=O)[C@@H](NC(=O)c2nnc(Cc3ccccc3)[nH]2)COc2cccnc21; test system = human, fasted; setting = oral, 10 mg single dose; quantity = subjects with headache; result = 0%
SMILES = CC(=O)CC(c1ccccc1)c1c(O)c2ccccc2oc1=O (stereo not drawn); test system = human; setting = concentration not given, trial 1; quantity = subjects with GI disorders; result = 0%
SMILES = Cc1cc(Nc2cc3ncccc3c(N[C@@H]3C[C@H]4CC[C@@H](C3)N4CCC#N)n2)n[nH]1; test system = healthy human; setting = oral, 100 mg single dose, 2 weeks; quantity = subjects with contact dermatitis; result = 50%
SMILES = CC[C@H](C)[C@H](NC(=O)[C@H](Cc1ccccc1)NC(=O)[C@H](CCC(=O)O)NC(=O)[C@H](CCCCNC(=O)COCCOCCNC(=O)COCCOCCNC(=O)CC[C@H](NC(=O)CCCCCCCCCCCCCCCCC(=O)O)C(=O)O)NC(=O)[C@H](C)NC(=O)[C@H](C)NC(=O)[C@H](CCC(N)=O)NC(=O)CNC(=O)[C@H](CCC(=O)O)NC(=O)[C@H](CC(C)C)NC(=O)[C@H](Cc1ccc(O)cc1)NC(=O)[C@H](CO)NC(=O)[C@H](CO)NC(=O)[C@@H](NC(=O)[C@H](CC(=O)O)NC(=O)[C@H](CO)NC(=O)[C@@H](NC(=O)[C@H](Cc1ccccc1)NC(=O)[C@@H](NC(=O)CNC(=O)[C@H](CCC(=O)O)NC(=O)C(C)(C)NC(=O)[C@@H](N)Cc1cnc[nH]1)[C@@H](C)O)[C@@H](C)O)C(C)C)C(=O)N[C@@H](C)C(=O)N[C@@H](Cc1c[nH]c2ccccc12)C(=O)N[C@@H](CC(C)C)C(=O)N[C@H](C(=O)N[C@@H](CCCNC(=N)N)C(=O)NCC(=O)N[C@@H](CCCNC(=N)N)C(=O)NCC(=O)O)C(C)C; test system = healthy human; setting = subcutaneous, 0.25 to 1.5 mg weekly, 16 weeks; quantity = subjects with serious adverse events; result = 1.2%
SMILES = CC(C)(C(=O)N1CCOc2c(C#N)cncc2C1)C(F)F; test system = human, both sexes; setting = oral, 10 mg single dose; quantity = subjects with fatigue TEAE; result = 0%
SMILES = Cc1nc(Nc2ncc(C(=O)Nc3c(C)cccc3Cl)s2)cc(N2CCN(CCO)CC2)n1; test system = human; setting = oral, 100 mg; quantity = subjects with related TEAE; result = 61.1%
SMILES = CO[C@]1(C(=O)N[C@@H](C)c2ccc(-n3cc(F)cn3)nc2)CC[C@H](c2nc(C)cc(Nc3cc(C)[nH]n3)n2)CC1; test system = healthy human, both sexes; setting = oral, 200 mg; quantity = subjects with constipation; result = 20%
SMILES = CC(C)n1c(Nc2cccnc2)nc2cnc(Nc3ccc(N4CCN(C)CC4)cc3)nc21; test = item: sinus bradycardia; test system = healthy human, male; setting = oral, dose not given, CTCAE grade 1-3; quantity = subjects with TEAE; result = 2.4%
SMILES = CN1CCN(c2cccc3c2CCN(C(=O)/C=C/c2c(-n4cnnn4)ccc(Cl)c2F)[C@@H]3C(=O)Nc2ccc(C(=O)O)cc2)C(=O)C1; test system = healthy human subjects; setting = intravenous infusion, 1.5 mg/h, 2 h; quantity = subjects with serious adverse event; result = 0%
SMILES = C=CC(=O)NC1CCN(c2ncc3ncnc(Nc4ccc(Oc5ccc6c(c5)ncn6C)c(C)c4)c3n2)CC1; test system = healthy male human; setting = oral, 60 mg, 2 weeks, maximum CTCAE grade 3; quantity = subjects with adverse events; result = 0%
SMILES = CN(C)C(=N)N=C(N)N; test = item: Vomiting; test system = healthy human; setting = oral, dose not given; quantity = subjects with adverse event; result = 0%
SMILES = O=C(COc1ccc(Cl)cc1)NC12CC(c3nnc([C@H]4C[C@@H](OC(F)(F)F)C4)o3)(C1)C2; test system = humans; setting = concentration not given; quantity = subjects with moderate TEAE; result = 28.6%
SMILES = C[C@H]1O[C@@H](O[C@H]2[C@@H](O)C[C@H](O[C@H]3[C@@H](O)C[C@H](O[C@H]4CC[C@@]5(C)[C@H](CC[C@@H]6[C@@H]5C[C@@H](O)[C@]5(C)[C@@H](C7=CC(=O)OC7)CC[C@]65O)C4)O[C@@H]3C)O[C@@H]2C)C[C@H](O)[C@@H]1O; test = item: Dizziness; test system = healthy human; setting = oral, dose not given; quantity = subjects with adverse event; result = 0%
SMILES = CO[C@H]1/C=C/O[C@@]2(C)Oc3c(C)c(O)c4c(O)c(c(/C=N/N5CCN(C)CC5)c(O)c4c3C2=O)NC(=O)/C(C)=C\C=C\[C@H](C)[C@H](O)[C@@H](C)[C@@H](O)[C@@H](C)[C@H](OC(C)=O)[C@@H]1C; test = item: renal and urinary disorders (SOC); test system = humans; setting = oral, dose not given; quantity = subjects with TEAEs; result = 29.2%
SMILES = C[C@H]1CN(C(=O)CC#N)[C@]12CCN(c1ncnc3[nH]ccc13)C2; test system = healthy human; setting = oral, 6 mg single; quantity = subjects with dry skin; result = 0%
SMILES = CNC(=O)c1ccc(-c2cnc3ncc(Cc4ccc5ncccc5c4)n3n2)cc1F; test system = healthy human subjects; setting = oral, 400 mg, Fatigue, all grades, all causality, together with: rifampicin 600 mg/day; quantity = subjects with adverse event; result = 7.7%
SMILES = C[C@@H](Oc1ccc(S(C)(=O)=O)cc1C(=O)N1C[C@@H]2C[C@]2(c2cc(C(F)(F)F)on2)C1)C(F)(F)F; test system = human; setting = oral, 25 mg; quantity = subjects with psychiatric disorders; result = 16.7%
SMILES = CC(C)c1c(C(=O)Nc2ccccc2)c(-c2ccccc2)c(-c2ccc(F)cc2)n1CC[C@@H](O)C[C@@H](O)CC(=O)O; test = item: Myositis; test system = healthy human; setting = oral, dose not given; quantity = subjects with adverse event; result = 8.3%
SMILES = C[C@@H](N)c1cc(Cl)ccc1Cn1c(=S)[nH]c(=O)c2[nH]ccc21; test system = human matched controls; setting = oral, 2.5 mg single dose; quantity = subjects with nausea; result = 10%
SMILES = C=C(C)[C@@H]1CC[C@]2(NCCN3CCS(=O)(=O)CC3)CC[C@]3(C)[C@H](CC[C@@H]4[C@@]5(C)CC=C(C6=CC[C@@](CF)(C(=O)O)CC6)C(C)(C)[C@@H]5CC[C@]43C)[C@@H]12; test system = healthy human volunteers; setting = oral, 500 mg, 7 days; quantity = subjects with groin pain; result = 17%
SMILES = CN(Cc1cnc2nc(N)nc(N)c2n1)c1ccc(C(=O)N[C@@H](CCC(=O)O)C(=O)O)cc1; test = item: nervous system disorders; test system = healthy human; setting = oral, dose not given; quantity = subjects with adverse event; result = 4.2%
SMILES = Cc1cc(-c2nccc3c2ccn3CC(=O)Nc2ccc(-c3cnccn3)cn2)ccn1; test system = human; setting = 15 mg once daily, multiple ascending dose; quantity = subjects with Headache adverse event; result = 22.2%
SMILES = COC(=O)N[C@H](C(=O)N1CCC[C@H]1c1ncc(-c2cc(F)c3c(c2)O[C@@H](c2cnc(C4CC4)s2)n2c-3cc3cc(-c4cnc([C@@H]5CCCN5C(=O)[C@@H](NC(=O)OC)C(C)C)[nH]4)ccc32)[nH]1)C(C)C; test system = healthy adult human; setting = oral, 180 mg, 6 days, compound alone; quantity = subjects with heavy menstrual bleeding; result = 0%
SMILES = CCC(C)n1ncn(-c2ccc(N3CCN(c4ccc(OCC5COC(Cn6cncn6)(c6ccc(Cl)cc6Cl)O5)cc4)CC3)cc2)c1=O (stereo not drawn); test system = healthy humans; setting = oral, 200 mg, dosed days 8 and 9; quantity = subjects with abdominal pain; result = 0%

A few entries again:
SMILES = CC(C)c1c(C(=O)Nc2ccccc2)c(-c2ccccc2)c(-c2ccc(F)cc2)n1CC[C@@H](O)C[C@@H](O)CC(=O)O; test = item: Myositis; test system = healthy human; setting = oral, dose not given; quantity = subjects with adverse event; result = 8.3%
SMILES = C[C@@H](N)c1cc(Cl)ccc1Cn1c(=S)[nH]c(=O)c2[nH]ccc21; test system = human matched controls; setting = oral, 2.5 mg single dose; quantity = subjects with nausea; result = 10%
SMILES = C=C(C)[C@@H]1CC[C@]2(NCCN3CCS(=O)(=O)CC3)CC[C@]3(C)[C@H](CC[C@@H]4[C@@]5(C)CC=C(C6=CC[C@@](CF)(C(=O)O)CC6)C(C)(C)[C@@H]5CC[C@]43C)[C@@H]12; test system = healthy human volunteers; setting = oral, 500 mg, 7 days; quantity = subjects with groin pain; result = 17%
SMILES = CN(Cc1cnc2nc(N)nc(N)c2n1)c1ccc(C(=O)N[C@@H](CCC(=O)O)C(=O)O)cc1; test = item: nervous system disorders; test system = healthy human; setting = oral, dose not given; quantity = subjects with adverse event; result = 4.2%
